Measurements collected from several papers.
Each line is one published result; not all experiments were run side by side. Values joined by “and” are separate records of one study, mostly repeats; a detail may differ. ± marks the error that the study gave.

| SMILES | test | test system | setting | scale | endpoint | result |
| --- | --- | --- | --- | --- | --- | --- |
| N[C@@H]1c2ccccc2OC12CCN(c1cnc3c(N4CCCc5ncccc54)n[nH]c3n1)CC2 | – | advanced solid tumour patients | oral, 20 mg once daily | – | TEAE causing dose reduction | 0% |
| O=C(O)CCCOc1ccc(F)cc1-c1cc(-c2ccccc2C(F)(F)F)n(-c2ccccc2)n1 | – | male Crl:CD(SD) rats, lungs | intravenous, 25 µg/kg, 14 d | – | organ weight | 1.27 ± 0.04 g |
| O=C(Nc1ccccc1)C1CCN(C(=O)Oc2cccnc2)CC1 | psychotropic effects VAS | healthy women | 20 mg | baseline: pre-dose baseline, direction not given | change in Surroundings score | 0.1 |
| Clc1ccc(-c2ccccc2)cc1 | – | Sprague-Dawley rat female, serum | inhalation, 35 µg/rat, 24 h | – | blood urea nitrogen | 11 ± 0.05 mg/dL |
| C[C@@H](NC(=O)N1C(=O)[C@H](Cc2ccnc(N)c2)[C@H]1C(=O)O)C1CCCCC1 | – | healthy Chinese adult volunteers | continuous intravenous infusion, dose not given, 5.0 days, all doses pooled | – | subjects with mild AEs | 50% |
| CO[C@H]1C[C@@H]2CC[C@@H](C)[C@@](O)(O2)C(=O)C(=O)N2CCCC[C@H]2C(=O)O[C@H]([C@H](C)C[C@@H]2CC[C@@H](OC(=O)NCCOCCOCCOCCOCCOCCOCCOCCOCCC(=O)N3CCc4cc(Cn5nc(-c6ccc7oc(N)nc7c6)c6c(N)ncnc65)ccc4C3)[C@H](OC)C2)C[C@@H](O)[C@H](C)/C=C(\C)[C@@H](O)[C@@H](OC)C(=O)[C@H](C)C[C@H](C)/C=C/C=C/C=C/1C | – | patients with advanced solid tumours | intravenous, dose not given, grade ≥3 | – | incidence of Vomiting TEAE | 5.3% |
| CCc1ccc(CC/C=C/c2ccc3c(c2)C(=O)CC3)cc1 | – | Sprague-Dawley rat, male, blood | oral, 450 mg/kg/day, 14 days | – | APTT | 20.4 s |
| COc1cc2c(Oc3ccc4[nH]c(C)cc4c3F)ccnc2cc1OCC1(N)CC1 | – | paediatric recurrent refractory sarcoma | concentration not given, whole group | – | grade 1 or 2 Proteinuria | 14.7% |
| Brc1ccc(Oc2cc(Br)c(Br)cc2Br)c(Br)c1 | – | whole cow milk | 20 nM nominal | – | dose fraction in milk fat | 81.4% |
| CCN1CCN(Cc2ccc(Nc3ncc(F)c(-c4cc(F)c5nc6n(c5c4)[C@H](C)CCC6)n3)nc2)CC1 | – | advanced solid tumour patients | dose not given, Phase Ia monotherapy | – | Leukopenia incidence, any grade | 54.2% |
| O=C(O)CCC(CP(=O)(O)O)C(=O)O (stereo not shown) | – | rat, processed derivatized plasma | 8 µg/mL, 18 h, 10 °C, autosampler stability | – | measured concentration | 8.06 ± 0.45 µg/mL |
| COc1cccc(Oc2ccccc2NC(=O)CNC(=O)c2cccc3ccccc23)c1 | – | esterase-deficient SCID mice, male, blood | oral, 40 mg/kg/day, 14 days, toxicity study | baseline: white cells | monocytes | 0% and 5% |
| C[C@]1(CO)Cc2ncn(-c3ccc(C#N)c(Cl)c3)c2C(=O)O1 | – | human, plasma | oral, 10 mg single dose, breakfast, high-fat, high-calorie, after | – | AUC(0-tz) adjusted geometric mean | 2.38 µM·h |

Some of these lines once more:
| SMILES | test | test system | setting | scale | endpoint | result |
| --- | --- | --- | --- | --- | --- | --- |
| O=C(O)CCC(CP(=O)(O)O)C(=O)O (stereo not shown) | – | rat, processed derivatized plasma | 8 µg/mL, 18 h, 10 °C, autosampler stability | – | measured concentration | 8.06 ± 0.45 µg/mL |
